Published values pooled from the literature.
Every numbered part comes from another study and shows a few of its results, in no order. Values joined by “and” are separate records of one study, mostly repeats; a detail may differ.
UniProt P15056, sequence (whole entry, unmodified, looked up): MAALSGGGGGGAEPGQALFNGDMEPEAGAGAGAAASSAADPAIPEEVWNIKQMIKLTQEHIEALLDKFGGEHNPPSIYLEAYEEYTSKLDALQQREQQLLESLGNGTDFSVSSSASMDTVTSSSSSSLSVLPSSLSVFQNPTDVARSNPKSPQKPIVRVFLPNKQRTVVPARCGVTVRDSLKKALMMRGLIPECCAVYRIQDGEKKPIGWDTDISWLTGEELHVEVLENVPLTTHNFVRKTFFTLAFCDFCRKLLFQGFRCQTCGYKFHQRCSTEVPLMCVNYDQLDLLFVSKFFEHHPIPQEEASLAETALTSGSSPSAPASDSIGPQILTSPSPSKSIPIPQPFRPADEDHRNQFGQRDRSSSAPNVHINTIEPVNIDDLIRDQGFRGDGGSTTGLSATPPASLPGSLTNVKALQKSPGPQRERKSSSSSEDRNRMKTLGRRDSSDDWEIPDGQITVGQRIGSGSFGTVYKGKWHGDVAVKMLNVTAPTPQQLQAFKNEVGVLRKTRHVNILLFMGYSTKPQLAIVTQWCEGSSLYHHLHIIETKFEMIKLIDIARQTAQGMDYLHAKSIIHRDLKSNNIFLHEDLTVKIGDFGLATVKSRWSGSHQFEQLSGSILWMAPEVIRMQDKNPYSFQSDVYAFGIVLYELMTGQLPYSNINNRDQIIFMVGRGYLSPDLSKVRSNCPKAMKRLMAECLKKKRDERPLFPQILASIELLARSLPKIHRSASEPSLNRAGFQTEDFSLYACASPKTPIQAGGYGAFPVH
UniProt Q13043, sequence (whole entry, looked up): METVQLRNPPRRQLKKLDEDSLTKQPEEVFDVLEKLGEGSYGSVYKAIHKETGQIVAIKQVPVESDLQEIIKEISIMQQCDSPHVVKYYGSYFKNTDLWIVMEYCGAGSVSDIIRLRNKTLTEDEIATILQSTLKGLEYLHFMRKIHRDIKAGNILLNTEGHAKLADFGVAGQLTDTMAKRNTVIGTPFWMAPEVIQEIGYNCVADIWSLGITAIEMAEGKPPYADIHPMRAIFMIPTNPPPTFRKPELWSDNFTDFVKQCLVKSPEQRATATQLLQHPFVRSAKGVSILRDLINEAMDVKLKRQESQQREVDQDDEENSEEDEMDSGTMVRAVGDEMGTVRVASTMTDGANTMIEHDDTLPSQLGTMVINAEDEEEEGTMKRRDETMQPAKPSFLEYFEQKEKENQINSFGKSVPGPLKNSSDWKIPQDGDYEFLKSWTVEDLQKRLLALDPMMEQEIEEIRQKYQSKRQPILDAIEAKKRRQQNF
UniProt Q9H3Y6, sequence (whole entry, looked up): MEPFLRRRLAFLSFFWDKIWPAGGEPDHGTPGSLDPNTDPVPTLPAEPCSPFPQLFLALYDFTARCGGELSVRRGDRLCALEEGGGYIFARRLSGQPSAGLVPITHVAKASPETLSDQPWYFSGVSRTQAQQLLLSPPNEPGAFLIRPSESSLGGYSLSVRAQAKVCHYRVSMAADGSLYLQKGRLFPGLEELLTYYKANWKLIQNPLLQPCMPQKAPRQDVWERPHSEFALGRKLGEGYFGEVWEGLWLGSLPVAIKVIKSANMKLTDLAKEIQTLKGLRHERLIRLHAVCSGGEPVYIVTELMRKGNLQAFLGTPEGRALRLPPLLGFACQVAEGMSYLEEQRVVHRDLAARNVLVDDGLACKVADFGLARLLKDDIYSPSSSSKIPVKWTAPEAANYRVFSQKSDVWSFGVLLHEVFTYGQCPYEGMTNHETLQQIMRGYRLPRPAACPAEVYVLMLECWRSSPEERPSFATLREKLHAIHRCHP
UniProt O96013, sequence (whole entry, looked up): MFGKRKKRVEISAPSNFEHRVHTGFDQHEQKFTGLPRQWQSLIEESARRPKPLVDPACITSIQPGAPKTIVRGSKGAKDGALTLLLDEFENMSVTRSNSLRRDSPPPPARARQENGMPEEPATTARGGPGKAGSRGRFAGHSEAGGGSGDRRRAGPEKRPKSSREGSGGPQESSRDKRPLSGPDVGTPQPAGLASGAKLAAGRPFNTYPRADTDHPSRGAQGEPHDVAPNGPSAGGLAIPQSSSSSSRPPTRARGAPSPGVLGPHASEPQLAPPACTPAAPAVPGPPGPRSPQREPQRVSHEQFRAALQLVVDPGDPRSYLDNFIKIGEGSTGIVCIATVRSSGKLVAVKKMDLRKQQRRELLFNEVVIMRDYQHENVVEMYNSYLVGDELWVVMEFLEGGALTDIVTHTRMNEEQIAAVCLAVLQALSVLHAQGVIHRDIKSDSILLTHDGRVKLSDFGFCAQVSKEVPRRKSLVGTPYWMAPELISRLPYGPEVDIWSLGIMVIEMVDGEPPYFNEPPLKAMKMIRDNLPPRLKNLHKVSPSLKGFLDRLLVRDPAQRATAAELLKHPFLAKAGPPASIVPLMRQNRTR

Set 1
Target: Sodium-dependent neutral amino acid transporter B(0)AT1 (SLC6A19, Homo sapiens, UniProt Q695T7)
UniProt Q695T7, sequence (whole entry, looked up): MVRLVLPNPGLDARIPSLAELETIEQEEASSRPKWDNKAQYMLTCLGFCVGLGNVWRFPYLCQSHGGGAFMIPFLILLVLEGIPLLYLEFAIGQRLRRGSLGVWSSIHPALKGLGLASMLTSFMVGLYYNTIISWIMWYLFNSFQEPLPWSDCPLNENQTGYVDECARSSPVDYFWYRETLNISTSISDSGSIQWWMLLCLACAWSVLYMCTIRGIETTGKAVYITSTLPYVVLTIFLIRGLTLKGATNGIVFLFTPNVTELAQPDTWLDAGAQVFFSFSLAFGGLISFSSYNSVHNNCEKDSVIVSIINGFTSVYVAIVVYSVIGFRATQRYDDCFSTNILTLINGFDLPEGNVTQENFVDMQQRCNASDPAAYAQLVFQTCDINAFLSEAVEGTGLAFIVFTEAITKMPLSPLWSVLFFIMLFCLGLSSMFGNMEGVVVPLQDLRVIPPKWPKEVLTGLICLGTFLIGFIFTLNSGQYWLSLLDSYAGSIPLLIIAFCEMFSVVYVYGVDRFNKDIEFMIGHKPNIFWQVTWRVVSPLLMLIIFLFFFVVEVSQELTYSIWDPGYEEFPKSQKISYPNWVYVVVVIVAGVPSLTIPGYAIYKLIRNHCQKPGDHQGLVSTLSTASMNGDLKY
Observed: membrane potential
Method: FLIPR membrane potential
Cell line: CHO-BC cells
Concentration: concentration not given
Setting: first screen
Relative to: uninhibited control
| SMILES | normalised transport activity |
| --- | --- |
| CC(C)NC(=O)COc1ccc(Cl)cc1 | 0.716 and 0.649 and 0.675 and 0.665 |
| CCCCNC(=O)COc1cc(C)c(Cl)c(C)c1 | 1 and 1.14 and 1.03 and 0.965 and 1.05 |
| CNC(=O)COc1cc(C)c(Cl)c(C)c1 | 0.592 and 0.639 and 0.647 and 0.685 and 0.651 |
| Cc1cc(OCC(=O)Nc2ccccc2)cc(C)c1Cl | 1.14 and 1.07 and 0.982 and 0.991 |
| CC(C)NC(=O)COc1ccc(Br)cc1 | 0.434 and 0.603 and 0.494 and 0.562 |
| Cc1cc(OCC(=O)CC(C)C)cc(C)c1Cl | 1.27 and 0.854 and 0.971 and 1.13 |
| Cc1cc(OCC(=O)OC(C)C)cc(C)c1Cl | 1.2 and 0.935 and 1.02 and 0.898 and 1.11 |
| Cc1cc(OC(C)(C)C(=O)NC(C)C)cc(C)c1Cl | 1.05 and 1.24 and 1.12 and 1.14 |
| Cc1cc(Cl)ccc1OCC(=O)NC(C)C | 0.78 and 0.952 and 0.919 and 0.832 and 0.889 |

Set 2
SMILES: C[C@@H]1CN(c2ccc(-c3cc(C(=O)NCCOCCOCCOCCOCCNC(=O)Cn4cc(-c5[nH]cc(C(=O)N[C@@H](CC(N)=O)c6ccc(F)c(Cl)c6)c5-c5ccc(Cl)cc5F)cn4)ccc3F)cc2NC(=O)c2c[nH]c(=O)cc2C(F)(F)F)C[C@H](C)N1C
Observed: thermal unfolding
Method: differential scanning fluorimetry
Concentration: 5.5 µM
Direction: higher = more unfolded
WDR5: WD repeat-containing protein 5 (WDR5, Homo sapiens, UniProt P61964)
DCAF1: DDB1- and CUL4-associated factor 1 (DCAF1, Homo sapiens, UniProt Q9Y4B6)
UniProt Q9Y4B6, sequence (whole entry, looked up): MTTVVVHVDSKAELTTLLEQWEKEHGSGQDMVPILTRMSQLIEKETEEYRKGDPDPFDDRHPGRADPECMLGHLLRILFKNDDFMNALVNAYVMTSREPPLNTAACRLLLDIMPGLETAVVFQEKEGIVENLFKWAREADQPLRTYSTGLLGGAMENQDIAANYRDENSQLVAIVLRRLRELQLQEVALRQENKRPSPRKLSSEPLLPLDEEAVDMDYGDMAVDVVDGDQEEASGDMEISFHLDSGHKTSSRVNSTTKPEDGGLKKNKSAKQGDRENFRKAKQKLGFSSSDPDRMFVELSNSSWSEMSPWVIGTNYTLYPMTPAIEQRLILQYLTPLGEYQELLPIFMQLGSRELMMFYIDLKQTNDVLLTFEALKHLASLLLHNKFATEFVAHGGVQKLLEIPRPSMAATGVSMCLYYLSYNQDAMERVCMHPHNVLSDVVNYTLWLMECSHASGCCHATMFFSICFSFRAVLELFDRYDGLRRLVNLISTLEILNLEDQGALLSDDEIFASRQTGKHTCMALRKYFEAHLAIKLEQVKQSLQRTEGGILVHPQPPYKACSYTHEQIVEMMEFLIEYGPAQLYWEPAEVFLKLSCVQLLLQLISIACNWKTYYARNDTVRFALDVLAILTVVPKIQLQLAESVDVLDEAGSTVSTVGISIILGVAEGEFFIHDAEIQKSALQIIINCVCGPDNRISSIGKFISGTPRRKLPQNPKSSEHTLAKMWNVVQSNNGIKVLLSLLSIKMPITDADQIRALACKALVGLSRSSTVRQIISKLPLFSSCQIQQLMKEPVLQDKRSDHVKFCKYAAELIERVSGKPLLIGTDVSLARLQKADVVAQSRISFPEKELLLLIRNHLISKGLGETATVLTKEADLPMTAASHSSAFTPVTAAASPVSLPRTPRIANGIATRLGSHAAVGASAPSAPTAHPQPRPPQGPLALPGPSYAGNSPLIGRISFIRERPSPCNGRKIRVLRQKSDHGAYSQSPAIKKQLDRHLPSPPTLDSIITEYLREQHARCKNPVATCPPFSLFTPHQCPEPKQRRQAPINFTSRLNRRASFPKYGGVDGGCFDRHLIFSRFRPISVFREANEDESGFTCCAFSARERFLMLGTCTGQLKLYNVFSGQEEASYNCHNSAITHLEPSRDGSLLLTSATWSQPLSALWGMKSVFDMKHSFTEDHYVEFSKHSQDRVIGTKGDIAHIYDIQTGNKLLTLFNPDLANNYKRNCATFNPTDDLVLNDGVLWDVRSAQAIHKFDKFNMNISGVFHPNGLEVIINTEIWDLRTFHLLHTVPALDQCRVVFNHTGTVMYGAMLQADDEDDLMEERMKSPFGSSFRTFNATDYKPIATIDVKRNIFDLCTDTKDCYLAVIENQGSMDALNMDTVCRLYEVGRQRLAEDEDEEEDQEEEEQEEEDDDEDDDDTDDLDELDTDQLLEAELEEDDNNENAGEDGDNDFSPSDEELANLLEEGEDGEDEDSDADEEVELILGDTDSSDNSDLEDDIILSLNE
| target | temperature | SYPRO Orange fluorescence [a.u.] |
| --- | --- | --- |
| WDR5 | 60.21 °C | 10300 |
| WDR5 | 45.2 °C | 14300 |
| DCAF1 | 38.6 °C | 9820 |
| WDR5 | 59.21 °C | 10800 |
| DCAF1 | 80.41 °C | 43900 |
| WDR5 | 41.2 °C | 14200 |
| WDR5 | 61.81 °C | 9340 |

Set 3
SMILES: COc1cc(-c2nc3ccc(C(=O)NCCCN(C)C)cc3n2C2CCC2)cc(OC)c1OC
Concentration: 1 µM
| target | observed | method | relative to | remaining binding [%] |
| --- | --- | --- | --- | --- |
| WNK1 (Homo sapiens, UniProt Q9H4A3) | binding | competition with immobilised ligand |  | 100 |
| GAK (Homo sapiens, UniProt O14976) | binding | competition with immobilised ligand |  | 92 |
| BRAF (Homo sapiens, UniProt P15056, V600E) | binding | competition with immobilised ligand |  | 88 |
| COQ8A (Homo sapiens, UniProt Q8NI60) | binding | competition with immobilised ligand |  | 88 |
| NUAK2 (Homo sapiens, UniProt Q9H093) | binding | competition with immobilised ligand |  | 91 |
| BRAF (Homo sapiens, UniProt P15056) | binding | competition with immobilised ligand |  | 80 |
| MAPK1 (Homo sapiens, UniProt P28482) | binding | competition with immobilised ligand |  | 100 |
| STK39 (Homo sapiens, UniProt Q9UEW8) | binding | competition with immobilised ligand |  | 99 |
| SGK1 (Homo sapiens, UniProt O00141) | binding | competition with immobilised ligand |  | 44 |
| STK4 (Homo sapiens, UniProt Q13043) | binding | competition with immobilised ligand |  | 56 |
| PAK4 (Homo sapiens, UniProt O96013) | binding | competition with immobilised ligand |  | 91 |
| HIPK4 (Homo sapiens, UniProt Q8NE63) | binding | competition with immobilised ligand |  | 100 |
| EGFR (Homo sapiens, UniProt P00533, del746-750) | binding | competition with immobilised ligand |  | 99 |
| MAP2K1 (Homo sapiens, UniProt Q02750) | binding | competition with immobilised ligand |  | 100 |
| EGFR (Homo sapiens, UniProt P00533, L858R/T790M) | binding | competition with immobilised ligand |  | 61 |
| EGFR (Homo sapiens, UniProt P00533, G719C) | binding | competition with immobilised ligand |  | 90 |
| SIK1 (Homo sapiens, UniProt P57059) |  | KINOMEscan | control | 100 |

Set 4
Structure (SMILES): CCC1(c2cccc(-c3cn(C)nc3C)c2)C2=C(Nc3n[nH]cc31)C(F)C(C)(C)CC2=O (single isomer, unassigned)
Concentration: 1 µM
| target | observed | method | relative to | remaining binding |
| --- | --- | --- | --- | --- |
| PI4KB (Homo sapiens, UniProt Q9UBF8) | kinase binding | KINOMEscan | DMSO control | 100% |
| CDPK1 (Plasmodium falciparum, UniProt P62344) | binding | competition with immobilised ligand |  | 67% |
| MARK4 (Homo sapiens, UniProt Q96L34) | binding | competition with immobilised ligand |  | 100% |
| PIM1 (Homo sapiens, UniProt P11309) | kinase binding | KINOMEscan | DMSO control | 100% |
| EPHA3 (Homo sapiens, UniProt P29320) | binding | competition with immobilised ligand |  | 88% |
| PIK3C2B (Homo sapiens, UniProt O00750) | kinase binding | KINOMEscan | DMSO control | 100% |
| PLK4 (Homo sapiens, UniProt O00444) | binding | competition with immobilised ligand |  | 95% |
| PRPF4B (Homo sapiens, UniProt Q13523) | kinase binding | KINOMEscan | DMSO control | 76% |
| SGK3 (Homo sapiens, UniProt Q96BR1) | kinase binding | KINOMEscan | DMSO control | 100% |
| AAK1 (Homo sapiens, UniProt Q2M2I8) | kinase binding | KINOMEscan | DMSO control | 97% |
| CDKL1 (Homo sapiens, UniProt Q00532) | binding | competition with immobilised ligand |  | 89% |
| Ribosomal protein S6 kinase alpha-3, C-terminal kinase domain (RPS6KA3, Homo sapiens, UniProt P51812) | binding | competition with immobilised ligand |  | 59% |
| MET (Homo sapiens, UniProt P08581, M1250T) | kinase binding | KINOMEscan | DMSO control | 100% |
| SRMS (Homo sapiens, UniProt Q9H3Y6) | binding | competition with immobilised ligand |  | 88% |

Set 5
Cell line: Gaucher fibroblasts L444P/L444P
Method: 4-MUG hydrolysis, cell lysate
Concentration: 0.1 µM
Relative to: DMSO
| Compound | GCase activity |
| --- | --- |
| Ic1ccc(Nc2nc(NCCN3CCOCC3)nc(N3CCCCC3)n2)cc1 | 102% and 99.8% and 96.4% and 90.8% and 94.8% and 100% |
| Ic1ccc(Nc2nc(NCCN3CCOCC3)nc(N3CCNCC3)n2)cc1 | 98.8% and 104% and 103% and 96.3% and 99.9% and 102% |
| Ic1ccc(Nc2nc(NCCN3CCOCC3)nc(NC3CCCCC3)n2)cc1 | 102% and 94.2% and 96.7% and 108% |
| Ic1ccc(Nc2nc(NCCN3CCOCC3)nc(N3CC4CCC(C3)O4)n2)cc1 | 104% and 103% and 99.5% |
| c1ccc(Nc2nc(NCCN3CCOCC3)nc(N3CCOCC3)n2)cc1 | 92.8% and 99.9% and 101% and 103% and 102% and 94.7% |
| Ic1ccc(Nc2nc(NCCN3CCOCC3)nc(N3CCCC3)n2)cc1 | 98.7% and 91.3% and 107% and 102% and 98.6% |
| Ic1ccc(Nc2nc(NCCCN3CCOCC3)nc(N3CCOCC3)n2)cc1 | 103% and 106% and 105% and 116% and 110% |
| Ic1ccc(Nc2nc(NCCN3CCOCC3)nc(N3CCSCC3)n2)cc1 | 98.7% and 110% and 87.7% and 109% |

Set 6
SMILES: Cc1ccc(O)c(C)c1-c1cnc2[nH]c(-c3cnc(N)nc3)cc2c1C#N
PKMYT1: Membrane-associated tyrosine- and threonine-specific cdc2-inhibitory kinase (PKMYT1, Homo sapiens, UniProt Q99640)
UniProt Q99640, sequence (whole entry, looked up): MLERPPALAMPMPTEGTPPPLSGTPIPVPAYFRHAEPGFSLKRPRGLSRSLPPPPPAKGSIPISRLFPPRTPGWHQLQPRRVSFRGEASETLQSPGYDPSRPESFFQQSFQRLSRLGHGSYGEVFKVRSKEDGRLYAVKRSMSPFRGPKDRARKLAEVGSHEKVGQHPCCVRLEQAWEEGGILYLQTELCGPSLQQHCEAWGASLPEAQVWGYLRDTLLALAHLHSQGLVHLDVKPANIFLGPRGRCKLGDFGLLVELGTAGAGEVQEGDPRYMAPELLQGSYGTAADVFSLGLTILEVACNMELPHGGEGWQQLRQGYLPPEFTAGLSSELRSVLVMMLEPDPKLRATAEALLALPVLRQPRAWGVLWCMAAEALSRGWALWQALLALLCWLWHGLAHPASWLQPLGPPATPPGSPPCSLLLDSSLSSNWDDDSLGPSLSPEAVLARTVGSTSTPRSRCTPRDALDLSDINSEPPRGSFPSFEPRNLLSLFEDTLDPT
| target or system | observed | method | measured | concentration | inhibition |
| --- | --- | --- | --- | --- | --- |
| HCC1569 |  | automated capillary immunoblot | CDK1 phospho-Thr14 | 0.46 nM | -2.53% |
| KLE | cell proliferation |  |  | 13.72 nM | 3.62% |
| LN-229 | cell proliferation |  |  | 4.572 nM | -5.71% and -3.43% |
| KLE | cell proliferation |  |  | 41.15 nM | 3.99% |
| PKMYT1 | cell-free assay | TR-FRET |  | 1 µM | 99.1% |
| HuCCT-1 | cell proliferation |  |  | 3333.33 nM | 96.3% |
| MKN-1 | cell proliferation |  |  | 41.15 nM | 1.24% |
| NCI-H1648 | cell proliferation |  |  | 20930 nM | 91.3% |
| HuCCT-1 | cell proliferation |  |  | 10000 nM | 98.9% |
| PKMYT1 |  |  |  | 0.001372 µM | 22.2% |
| NCI-H1648 | cell proliferation |  |  | 775.2 nM | -3.14% |
| NCI-H1648 | cell proliferation |  |  | 86.13 nM | -17.9% |
| HCC1806 | cell proliferation |  |  | 1111.11 nM | 89.3% |

A few entries again (set 4):
| target | observed | method | relative to | remaining binding |
| --- | --- | --- | --- | --- |
| MARK4 (Homo sapiens, UniProt Q96L34) | binding | competition with immobilised ligand |  | 100% |
| PIM1 (Homo sapiens, UniProt P11309) | kinase binding | KINOMEscan | DMSO control | 100% |
| EPHA3 (Homo sapiens, UniProt P29320) | binding | competition with immobilised ligand |  | 88% |
| PIK3C2B (Homo sapiens, UniProt O00750) | kinase binding | KINOMEscan | DMSO control | 100% |
| PLK4 (Homo sapiens, UniProt O00444) | binding | competition with immobilised ligand |  | 95% |
| PRPF4B (Homo sapiens, UniProt Q13523) | kinase binding | KINOMEscan | DMSO control | 76% |
| SGK3 (Homo sapiens, UniProt Q96BR1) | kinase binding | KINOMEscan | DMSO control | 100% |
